# Measured values pooled from the literature.
# Lines come from different studies, so protocols differ. Several values in a cell are separate wells, animals, samples, runs or records. ± gives the spread as reported.
# PGR: Progesterone receptor (PGR, Homo sapiens, UniProt P06401)
# CES2: Cocaine esterase (CES2, Homo sapiens, UniProt O00748)
# EPHX2: Bifunctional epoxide hydrolase 2 (EPHX2, Homo sapiens, UniProt P34913)
# CHRM2: Muscarinic acetylcholine receptor M2 (CHRM2, Homo sapiens, UniProt P08172)
Compound,target,test,system,setting,how to read,measurement,result
C=CC(=O)N1C[C@H](C)N(c2nc(OC[C@@]34CCCN3C[C@H](F)C4)nc3c(F)c(-c4ccc(F)c5sc(N)c(C#N)c45)c(C(F)(F)F)cc23)C[C@H]1C,"GTPase KRas (KRAS, Homo sapiens, UniProt P01116, G12C)",,MIA PaCa-2 and SW1463,20 nM,,time to Cys12 engagement,≤ 30 min
CC(=O)OC1(C(C)=O)CCC2C3C=C(CO)C4=CC(=O)CCC4(C)C3CCC21C (centres unmarked),PGR,"agonist, measured: FKBP5",T47D,"100 nM, 8 h",baseline: ethanol vehicle,mRNA fold change,4.7 ± 0.8 fold change
FC(F)(F)c1ccc(/N=c2\oc3ccccc3cc2-c2ccccc2)cc1,"PTGS1 (Ovis aries, UniProt P05979)","enzyme activity, inhibitor",,"from IC50, T 300 K",,binding free energy,-11.1 kcal/mol
N=C(N)NCCC[C@@H]1NC(=O)[C@H](Cc2c[nH]c3ccccc23)NC(=O)[C@H](CCCNC(=N)N)NC(=O)[C@H](Cc2c[nH]c3ccccc23)NC(=O)[C@H](CCCNC(=N)N)NC(=O)[C@H](Cc2c[nH]c3ccccc23)NC(=O)[C@H](CCCNC(=N)N)NC(=O)[C@H](Cc2c[nH]c3ccccc23)NC(=O)[C@H](CCCNC(=N)N)NC(=O)[C@H](Cc2c[nH]c3ccccc23)NC(=O)[C@H](CCCNC(=N)N)NC(=O)[C@H](Cc2c[nH]c3ccccc23)NC(=O)[C@H](CCCNC(=N)N)NC(=O)[C@H](Cc2c[nH]c3ccccc23)NC(=O)[C@H](CCCNC(=N)N)NC(=O)[C@H](Cc2c[nH]c3ccccc23)NC(=O)[C@H](CCCNC(=N)N)NC(=O)[C@H](Cc2c[nH]c3ccccc23)NC1=O,"PRKCA (Homo sapiens, UniProt P17252)","enzyme activity, inhibitor",,5 µM,,remaining activity,5%
CC(C)CSc1nc2c([nH]1)c(=S)n(C)c(=O)n2C,"Nr3c1 (Rattus norvegicus, UniProt P06536)","reporter gene, antagonist, MMTV-luciferase",T47D/A1-2,"10 µM, 24 h, with: 5 nM dexamethasone",baseline: maximal activity,remaining activity,80%
CC(C)CN(CC(C)C)C(=O)/C=C/C=C/c1ccc2c(c1)OCO2,"Gamma-aminobutyric acid receptor subunit alpha-1/beta-3 (Gabra1/Gabrb3, Rattus norvegicus, UniProt P62813+P63079)","GABA current potentiation, positive modulator, two-electrode voltage clamp",Xenopus oocytes expressing α1β3,with: GABA EC3-7,,Hill coefficient,1.5 ± 0.3
O=C([O-])CN(CCN(CC(=O)[O-])Cc1cc(CCC(=O)NCCCCCC(=O)NCCCC[C@H](NC(=O)N[C@@H](CCC(=O)O)C(=O)O)C(=O)O)ccc1O)Cc1cc(CCC(=O)O)ccc1[O-].[68Ga+3],"FOLH1 (Homo sapiens, UniProt Q04609)",PET/CT,"prostate cancer patients, primary prostate lesions","mean, lesion SUVmax",baseline: gluteal muscle SUVmean,tumour-to-background ratio,47.5
CCCCCCCCCC(=O)Nc1ccc(OC)nc1C,CES2,substrate,,"50 µM, pH 8, 37 °C, enzyme purity 4%",,specific activity,30 pmol/min/µg
CCCCSc1nc2c([nH]1)c(=S)n(C)c(=S)n2C,PGR,"reporter gene, antagonist, MMTV-luciferase",T47D/A1-2,"10 µM, 24 h, with: 5 nM progesterone",baseline: maximal activity,remaining activity,51%
COc1ccc(NC(=S)Nc2cccc3[nH]ccc23)cc1,"Alpha-synuclein (SNCA, Homo sapiens, UniProt P37840)","fibril formation, ThT fluorescence kinetics",,"100 µM, α-syn 2 µM, plateau phase",baseline: DMSO vehicle,maximum ThT fluorescence,25 ± 2%
CCN(CC)c1ccc2c(-c3ccc(S(=O)(=O)NCC(=O)NCC(=O)N[C@@H](CO)C(=O)NCC(=O)NCC(=O)N[C@@H](CO)C(=O)NCC(=O)NCC(=O)N[C@@H](CO)C(=O)N[C@@H](CC(C)C)C(=O)N[C@@H](CC(N)=O)C(=O)N4CCC[C@H]4C(=O)N[C@@H](Cc4c[nH]cn4)C(=O)NCC(=O)N[C@@H](CO)C(=O)N[C@@H](C)C(=O)N[C@@H](CCCNC(=N)N)C(=O)N[C@@H](C)C(=O)N[C@@H](CCC(=O)O)C(=O)N[C@H](C(=O)N[C@@H](Cc4c[nH]cn4)C(=O)N[C@@H](CC(C)C)C(=O)N[C@@H](CO)C(N)=O)C(C)C)cc3S(=O)(=O)[O-])c3ccc(=[N+](CC)CC)cc-3oc2c1,"WDR5 (Homo sapiens, UniProt P61964)","binding, surface plasmon resonance",,with: SET1 Win peptide,above detection limit,koff,> 0.5 s⁻¹
CCCC(=O)N1CCN(C(=O)c2ccc(NC(=O)NC34CC5CC(C)(CC(C)(C5)C3)C4)cc2)CC1,EPHX2,,,,,lipophilic ligand efficiency,5.85
CCCCCCCCNP(=O)(OCCCCCCCC)O[C@@H]1O[C@H](CO)[C@@H](O)[C@H](O)[C@H]1F (mixture of isomers),"GBA1 (Homo sapiens, UniProt P04062)","enzyme activity, irreversible inhibitor",,"pH 5.5, 37 °C, with: 2,4-dinitrophenyl beta-D-glucopyranoside",,kinact/Ki,658 M⁻¹ s⁻¹
CC(C)(C)CCN1C[C@@H]2[C@@H](CNC(=O)c3cc(Cl)cc(Cl)c3)[C@@H]2C1.Cl,"CACNA1H (Homo sapiens, UniProt O95180)",whole-cell patch clamp,"HEK-293T, transfected",100 nM,,Gmax,0.0966 ± 0.0239 nS/pF
CCCCCCCCCCCSc1nc2c([nH]1)c(=O)n(C)c(=S)n2C,PGR,"reporter gene, antagonist, MMTV-luciferase",T47D/A1-2,"10 µM, 24 h, with: 5 nM progesterone",baseline: maximal activity,remaining activity,73%
CCCCCCCCCCCCCCCC(=O)OCC(CSC[C@H](N)C(=O)N[C@@H](CO)C(=O)N[C@@H](CCCCN)C(=O)N[C@@H](CCCCN)C(=O)N[C@@H](CCCCN)C(=O)N[C@@H](CCCCN)C(=O)NCCCCCC(=O)N[C@@H](CCCCN)C(=O)N[C@@H](CC(C)C)C(=O)N[C@H](C(=O)N[C@@H](Cc1ccccc1)C(=O)N[C@@H](Cc1ccccc1)C(=O)N[C@@H](Cc1ccc2ccccc2c1)C(=O)O)C(C)C)OC(=O)CCCCCCCCCCCCCCC (some centres unmarked),"Amyloid-beta precursor protein, fibrillar amyloid-beta (APP, Homo sapiens, UniProt P05067)","fibril disruption, thioflavin T fluorescence",,"50 µM, preformed fibrils 10 µM",,half-life,2 h
C=CCn1c(=O)c2ccccc2n2c(SCC(=O)Nc3ccc(NC(C)=O)cc3)nnc12,CHRM2,"ERK1/2 phosphorylation, antagonist",human cells,"10 µM, with: [3H]NMS, iperoxo at EC80",,pA2,10.8 ± 0.29
COCCN1CCN(C(=S)c2ccc(-c3cc(Cl)ccc3Cl)o2)CC1,"NPR2 (Homo sapiens, UniProt P20594)","positive allosteric modulator, cGMP HTRF",HEK293 expressing GC-B,"concentration not given, with: CNP",,activity,inactive
C=C(O[C@H]1C=CC=C(C(=O)O)[C@@H]1O)C(=O)O,"Enterobactin synthase component B (entB, Escherichia coli, UniProt P0ADI4)",isochorismatase activity,,"0.1 µM EntB, LDH-coupled, with: 0 µM 2,3-dihydroxybenzoate",,Vmax,4.91 ± 0.22 µM/min
CC1=C(/C=C/C(C)=C/C=C/C(C)=C/C=O)C(C)(C)CCC1,"CNGA1 (Bos taurus, UniProt Q00194)","ion current, inhibitor, patch clamp",,"200 nM, holding potential -50 mV, with: cGMP 2 mM",,slow time constant of inhibition,769 s
Nc1ncc(-c2nc(N3CCOCC3)nc(N3CCN(C(=O)CCC(=O)N4CCC(CC5CCN(c6cc7c(cc6F)C(=O)N(C6CCC(=O)NC6=O)C7=O)CC5)CC4)CC3)n2)c(C(F)F)n1 (centres unmarked),"PIK3CB (Homo sapiens, UniProt P42338)","degrader, parallel reaction monitoring",MCF7,"100 nM, 6 h",,degradation,~50%
CCCCCCCC(=O)Nc1ccc(OC)nc1C,CES2,"enzyme activity, substrate",,"pH 8, 37 °C, substrate 3.13 to 100 µM",,apparent Vmax,14 pmol/min/µg
O=C(NC[C@@H](Cc1ccccc1)N1CCC(O)(C(F)(F)F)CC1)C1(c2ccc(Cl)cc2)CCCC1,"TRPA1 (Homo sapiens, UniProt O75762)",calcium influx,HEK293F transiently expressing TRPA1,,,Hill slope,1.5 and 1.4
CSc1cc(C)[nH]c(=O)c1CNC(=O)c1cc(Cl)c2c(c1C)OC(C)(C1CCC(N(C)C)CC1)O2 (centres unmarked),"EZH2 (Homo sapiens, UniProt Q15910)",,,activated enzyme,,kon,910000 M⁻¹ s⁻¹
CC1=CC(C)=[N+]2C1=C(CCCCc1cn(C[C@@H]3[C@@H](O)[C@H](O)[C@@H](O)[C@@H]4O[C@H]34)nn1)c1c(C)cc(C)n1[B-]2(F)F,"GBA1 (Homo sapiens, UniProt P04062, R534H)","thermal stability, tryptophan fluorescence",,"saturating, pH 5.2",,Tm increase,21 °C
CC(C)CC(NC(=O)C(NC(=O)NC(C(=O)O)C(C)C)C1CCNC(=N)N1)C(=O)NCCCNC(C(=O)O)C(OC1OC(CN)C(O)C1O)C1OC(n2ccc(=O)[nH]c2=O)C(O)C1O (centres unmarked),"mraY (Aquifex aeolicus, UniProt O66465, F262A)",ITC,,F262A mutant,,ΔH,-4.9 ± 0.8 kcal/mol
CC(C)[C@H](NC(=O)[C@H](CCCCN)NC(=O)[C@H](C)NC(=O)[C@H](CCCCN)NC(=O)CNC(=O)[C@H](CCCNC(=N)N)NC(=O)[C@@H](NC(=O)[C@H](CCCCN)NC(=O)[C@@H](N)CO)[C@@H](C)O)C(=O)N[C@H](C(=O)NCC(=O)N[C@@H](CCCNC(=N)N)C(=O)N[C@@H](Cc1c[nH]c2ccccc12)C(=O)N[C@@H](CCCCN)C(=O)O)[C@@H](C)O,"TPM1/ACTA1, with F-actin (Oryctolagus cuniculus, UniProt P58772+P68135)","binding, LSPR",F-actin-tropomyosin filament,pH 7.0,,koff,0.0362 ± 0.00343 s⁻¹
CC12CC3CC(C)(C1)CC(NC(=O)Nc1ccc(C(=O)N4CCCC(C(=O)NC5CC5)C4)cc1)(C3)C2 (centres unmarked),EPHX2,,,,,lipophilic ligand efficiency,6.22
Cc1ncsc1-c1ccc(CNC(=O)[C@@H]2C[C@@H](O)CN2C(=O)[C@@H](NC(=O)COCCOCCOCCNC(=O)C[C@@H]2N=C(c3ccc(Cl)cc3)c3c(sc(C)c3C)-n3c(C)nnc32)C(C)(C)C)cc1,"BRD4/VHL, BD2; with elongins B/C (Homo sapiens, UniProt O60885+P40337, A384K/E383V/K378Q)",ITC,,25 °C,baseline: binary Kd over ternary Kd,cooperativity,4
CCCCCCOc1ccc(C(=O)OCCN2CC=CCC2)cc1,CHRM2,recovery of [3H]NMS binding after washing,membranes,100 µM,,dissociation half-time,2 ± 0.2 h
NC(=O)C1CCNC(=O)C(CCCNC(=O)c2cnccn2)NC(=O)C(CC2CCCCC2)NC(=O)C(CC2CC2)NC(=O)C=CC(=O)N1 (centres unmarked),"MAP2K6 (Homo sapiens, UniProt P52564)",DNA-templated library selection,,one selection round,,enrichment factor,1.3
CNc1ccccc1C(=O)O[C@H]1C[C@H](n2cnc3c(N)ncnc32)O[C@@H]1COP(=O)(O)OP(=O)(O)O,"Unconventional myosin-Va (Gallus gallus, UniProt Q02440, D297C/G292C/I296C/S293C/V295G)",van't Hoff analysis,,"concentration not given, with: 10 mM Mg2+",,T∆S of ligand binding,0.2 ± 1.3 kcal/mol

# For quick reference, copied from above:
Compound,target,test,system,setting,how to read,measurement,result
CC(C)CN(CC(C)C)C(=O)/C=C/C=C/c1ccc2c(c1)OCO2,"Gamma-aminobutyric acid receptor subunit alpha-1/beta-3 (Gabra1/Gabrb3, Rattus norvegicus, UniProt P62813+P63079)","GABA current potentiation, positive modulator, two-electrode voltage clamp",Xenopus oocytes expressing α1β3,with: GABA EC3-7,,Hill coefficient,1.5 ± 0.3
O=C([O-])CN(CCN(CC(=O)[O-])Cc1cc(CCC(=O)NCCCCCC(=O)NCCCC[C@H](NC(=O)N[C@@H](CCC(=O)O)C(=O)O)C(=O)O)ccc1O)Cc1cc(CCC(=O)O)ccc1[O-].[68Ga+3],"FOLH1 (Homo sapiens, UniProt Q04609)",PET/CT,"prostate cancer patients, primary prostate lesions","mean, lesion SUVmax",baseline: gluteal muscle SUVmean,tumour-to-background ratio,47.5
